Experimental data gathered from unrelated publications.
± gives the spread as reported.
KCNH2: Voltage-gated inwardly rectifying potassium channel KCNH2 (KCNH2, Homo sapiens, UniProt Q12809)

By UniProt entry, the sequences of proteins in these tests, tags left out. Residues count along the entry.
UniProt Q12809, whole entry: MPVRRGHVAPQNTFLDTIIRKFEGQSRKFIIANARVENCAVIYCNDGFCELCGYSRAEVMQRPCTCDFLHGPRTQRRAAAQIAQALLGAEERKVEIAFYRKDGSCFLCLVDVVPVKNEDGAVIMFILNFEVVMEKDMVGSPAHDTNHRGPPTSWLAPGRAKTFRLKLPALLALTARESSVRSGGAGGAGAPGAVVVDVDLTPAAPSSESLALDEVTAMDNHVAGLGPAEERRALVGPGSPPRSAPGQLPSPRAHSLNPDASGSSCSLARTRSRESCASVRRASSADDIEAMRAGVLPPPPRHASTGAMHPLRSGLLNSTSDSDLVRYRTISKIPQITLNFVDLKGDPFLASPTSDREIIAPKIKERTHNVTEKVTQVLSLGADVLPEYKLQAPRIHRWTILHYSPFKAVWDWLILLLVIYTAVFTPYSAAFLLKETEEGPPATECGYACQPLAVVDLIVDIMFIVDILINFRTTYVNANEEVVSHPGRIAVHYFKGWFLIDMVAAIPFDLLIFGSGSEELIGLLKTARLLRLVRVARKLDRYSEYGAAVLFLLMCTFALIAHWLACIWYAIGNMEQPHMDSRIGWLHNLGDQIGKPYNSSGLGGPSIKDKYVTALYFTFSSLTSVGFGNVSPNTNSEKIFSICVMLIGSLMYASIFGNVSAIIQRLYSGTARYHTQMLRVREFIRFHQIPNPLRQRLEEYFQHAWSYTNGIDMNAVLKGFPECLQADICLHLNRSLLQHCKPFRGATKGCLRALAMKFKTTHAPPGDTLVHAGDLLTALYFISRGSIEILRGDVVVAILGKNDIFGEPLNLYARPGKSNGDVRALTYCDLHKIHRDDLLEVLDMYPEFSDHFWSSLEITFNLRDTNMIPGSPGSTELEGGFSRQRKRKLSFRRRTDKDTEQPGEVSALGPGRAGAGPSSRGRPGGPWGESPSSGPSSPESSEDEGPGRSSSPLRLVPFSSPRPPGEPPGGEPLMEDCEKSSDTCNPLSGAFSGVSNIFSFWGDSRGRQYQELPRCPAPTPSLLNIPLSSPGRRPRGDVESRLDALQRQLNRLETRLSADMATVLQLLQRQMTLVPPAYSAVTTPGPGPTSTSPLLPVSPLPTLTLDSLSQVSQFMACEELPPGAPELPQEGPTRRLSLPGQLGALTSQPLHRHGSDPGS
UniProt P35869, whole entry, looked up: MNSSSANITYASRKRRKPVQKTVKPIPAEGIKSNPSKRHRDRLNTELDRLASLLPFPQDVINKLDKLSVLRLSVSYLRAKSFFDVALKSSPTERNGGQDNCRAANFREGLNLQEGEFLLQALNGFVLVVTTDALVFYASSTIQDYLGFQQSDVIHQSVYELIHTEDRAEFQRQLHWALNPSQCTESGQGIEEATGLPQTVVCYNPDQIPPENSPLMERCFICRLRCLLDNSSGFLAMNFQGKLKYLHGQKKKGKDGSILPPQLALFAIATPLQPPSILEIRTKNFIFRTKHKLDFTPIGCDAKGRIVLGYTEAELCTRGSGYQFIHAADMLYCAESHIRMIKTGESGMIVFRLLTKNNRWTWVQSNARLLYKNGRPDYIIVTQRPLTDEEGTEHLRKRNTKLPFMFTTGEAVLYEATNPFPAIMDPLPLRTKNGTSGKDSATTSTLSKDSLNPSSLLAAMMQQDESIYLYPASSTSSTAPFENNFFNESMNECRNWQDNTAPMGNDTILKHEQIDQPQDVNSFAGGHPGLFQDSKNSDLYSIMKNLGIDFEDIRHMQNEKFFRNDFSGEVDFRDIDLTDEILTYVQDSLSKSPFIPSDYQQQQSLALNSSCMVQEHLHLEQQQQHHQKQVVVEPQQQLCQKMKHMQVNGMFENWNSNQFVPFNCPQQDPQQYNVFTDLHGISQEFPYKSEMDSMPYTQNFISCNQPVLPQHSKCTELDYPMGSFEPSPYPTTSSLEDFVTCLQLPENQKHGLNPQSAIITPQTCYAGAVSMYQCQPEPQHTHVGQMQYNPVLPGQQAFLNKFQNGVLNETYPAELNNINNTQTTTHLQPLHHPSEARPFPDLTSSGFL
UniProt P11712, whole entry: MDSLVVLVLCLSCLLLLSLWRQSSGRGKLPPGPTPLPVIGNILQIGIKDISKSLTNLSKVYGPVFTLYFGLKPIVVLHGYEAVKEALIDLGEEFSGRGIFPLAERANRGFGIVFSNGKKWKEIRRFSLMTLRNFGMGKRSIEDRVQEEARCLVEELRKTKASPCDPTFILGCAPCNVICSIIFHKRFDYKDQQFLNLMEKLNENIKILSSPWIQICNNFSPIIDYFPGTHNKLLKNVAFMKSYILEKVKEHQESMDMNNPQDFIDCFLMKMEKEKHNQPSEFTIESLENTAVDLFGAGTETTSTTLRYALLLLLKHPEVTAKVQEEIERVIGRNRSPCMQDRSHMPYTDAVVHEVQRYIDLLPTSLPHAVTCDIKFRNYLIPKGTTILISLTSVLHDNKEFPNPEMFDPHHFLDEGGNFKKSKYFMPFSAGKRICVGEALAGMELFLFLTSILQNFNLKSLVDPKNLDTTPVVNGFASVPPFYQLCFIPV
UniProt P30561, 10-848 limits assumed: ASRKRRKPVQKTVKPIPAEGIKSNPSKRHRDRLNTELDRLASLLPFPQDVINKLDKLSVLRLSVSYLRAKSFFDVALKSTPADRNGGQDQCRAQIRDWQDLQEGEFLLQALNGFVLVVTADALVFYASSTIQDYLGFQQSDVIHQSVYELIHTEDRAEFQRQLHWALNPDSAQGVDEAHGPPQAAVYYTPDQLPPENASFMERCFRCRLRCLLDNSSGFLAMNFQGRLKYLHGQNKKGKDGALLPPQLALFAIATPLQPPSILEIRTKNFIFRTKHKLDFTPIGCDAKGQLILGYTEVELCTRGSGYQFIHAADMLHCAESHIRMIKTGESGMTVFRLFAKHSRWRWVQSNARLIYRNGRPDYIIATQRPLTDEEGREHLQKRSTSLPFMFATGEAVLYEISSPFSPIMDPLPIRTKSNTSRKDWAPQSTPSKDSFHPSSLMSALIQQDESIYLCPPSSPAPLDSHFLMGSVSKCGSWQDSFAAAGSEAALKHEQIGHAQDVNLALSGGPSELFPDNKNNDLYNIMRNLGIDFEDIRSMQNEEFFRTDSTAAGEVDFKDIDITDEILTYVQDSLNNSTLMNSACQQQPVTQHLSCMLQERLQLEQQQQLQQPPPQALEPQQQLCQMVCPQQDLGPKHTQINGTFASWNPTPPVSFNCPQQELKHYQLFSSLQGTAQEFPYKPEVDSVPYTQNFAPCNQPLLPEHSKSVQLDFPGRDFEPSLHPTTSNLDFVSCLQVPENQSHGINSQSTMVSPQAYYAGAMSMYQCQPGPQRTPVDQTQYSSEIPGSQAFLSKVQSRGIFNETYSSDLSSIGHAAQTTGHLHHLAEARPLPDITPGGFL
UniProt P35353, 24-415 limits assumed: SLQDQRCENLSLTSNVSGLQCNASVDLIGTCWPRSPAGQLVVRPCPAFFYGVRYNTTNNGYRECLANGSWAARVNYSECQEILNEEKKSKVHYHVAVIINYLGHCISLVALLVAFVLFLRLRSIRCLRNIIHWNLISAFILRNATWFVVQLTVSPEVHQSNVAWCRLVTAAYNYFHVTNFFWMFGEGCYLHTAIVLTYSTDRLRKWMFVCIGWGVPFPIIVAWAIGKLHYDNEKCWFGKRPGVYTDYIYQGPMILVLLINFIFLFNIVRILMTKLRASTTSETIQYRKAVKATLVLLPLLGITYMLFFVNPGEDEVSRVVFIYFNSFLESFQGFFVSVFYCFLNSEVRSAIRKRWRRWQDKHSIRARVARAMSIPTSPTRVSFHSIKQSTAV
UniProt P21447, whole entry N83Q/N87Q/N90Q: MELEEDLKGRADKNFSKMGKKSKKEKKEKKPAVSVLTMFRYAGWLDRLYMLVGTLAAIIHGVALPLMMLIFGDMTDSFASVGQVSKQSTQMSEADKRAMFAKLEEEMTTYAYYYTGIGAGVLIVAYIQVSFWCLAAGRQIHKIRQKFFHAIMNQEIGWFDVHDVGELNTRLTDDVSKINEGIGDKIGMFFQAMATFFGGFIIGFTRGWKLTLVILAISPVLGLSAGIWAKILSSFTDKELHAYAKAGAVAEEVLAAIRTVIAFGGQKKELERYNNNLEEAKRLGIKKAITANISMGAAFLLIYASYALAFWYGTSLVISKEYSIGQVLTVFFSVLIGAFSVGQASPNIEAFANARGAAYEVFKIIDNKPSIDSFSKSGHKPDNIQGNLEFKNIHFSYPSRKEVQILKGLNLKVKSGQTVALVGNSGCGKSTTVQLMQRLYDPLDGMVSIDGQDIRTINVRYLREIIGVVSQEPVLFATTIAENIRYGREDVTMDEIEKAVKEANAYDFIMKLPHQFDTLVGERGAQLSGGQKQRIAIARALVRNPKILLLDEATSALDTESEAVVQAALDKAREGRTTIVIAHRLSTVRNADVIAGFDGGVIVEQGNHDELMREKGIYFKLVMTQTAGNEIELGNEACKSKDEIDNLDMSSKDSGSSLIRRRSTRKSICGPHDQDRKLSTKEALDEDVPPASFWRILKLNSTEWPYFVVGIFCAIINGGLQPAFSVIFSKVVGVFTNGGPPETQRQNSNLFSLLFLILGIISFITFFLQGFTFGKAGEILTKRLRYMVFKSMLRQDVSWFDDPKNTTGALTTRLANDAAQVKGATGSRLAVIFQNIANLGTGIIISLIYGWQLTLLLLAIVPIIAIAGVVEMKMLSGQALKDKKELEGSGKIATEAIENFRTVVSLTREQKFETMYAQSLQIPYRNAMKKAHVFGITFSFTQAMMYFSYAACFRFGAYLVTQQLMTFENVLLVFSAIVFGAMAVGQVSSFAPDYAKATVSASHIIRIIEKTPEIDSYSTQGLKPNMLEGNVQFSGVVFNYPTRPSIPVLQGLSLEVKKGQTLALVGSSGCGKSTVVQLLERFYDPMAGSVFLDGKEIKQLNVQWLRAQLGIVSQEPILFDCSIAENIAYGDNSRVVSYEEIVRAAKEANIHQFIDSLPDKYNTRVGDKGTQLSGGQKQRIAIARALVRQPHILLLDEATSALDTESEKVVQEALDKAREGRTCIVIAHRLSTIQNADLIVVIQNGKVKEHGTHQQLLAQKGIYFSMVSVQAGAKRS
UniProt P08172, whole entry: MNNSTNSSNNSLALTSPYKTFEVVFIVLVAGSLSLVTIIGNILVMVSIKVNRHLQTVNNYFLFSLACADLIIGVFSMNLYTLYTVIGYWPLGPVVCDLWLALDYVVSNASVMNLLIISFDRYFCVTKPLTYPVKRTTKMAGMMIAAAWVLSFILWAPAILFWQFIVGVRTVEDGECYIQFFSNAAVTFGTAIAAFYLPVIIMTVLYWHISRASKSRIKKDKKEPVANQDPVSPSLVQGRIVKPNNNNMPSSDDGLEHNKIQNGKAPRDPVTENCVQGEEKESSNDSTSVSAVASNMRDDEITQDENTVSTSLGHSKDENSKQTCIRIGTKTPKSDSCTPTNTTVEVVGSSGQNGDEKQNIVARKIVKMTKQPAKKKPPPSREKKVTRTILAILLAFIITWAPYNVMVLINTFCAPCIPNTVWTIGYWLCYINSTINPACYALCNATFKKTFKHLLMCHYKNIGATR
UniProt P08684, whole entry: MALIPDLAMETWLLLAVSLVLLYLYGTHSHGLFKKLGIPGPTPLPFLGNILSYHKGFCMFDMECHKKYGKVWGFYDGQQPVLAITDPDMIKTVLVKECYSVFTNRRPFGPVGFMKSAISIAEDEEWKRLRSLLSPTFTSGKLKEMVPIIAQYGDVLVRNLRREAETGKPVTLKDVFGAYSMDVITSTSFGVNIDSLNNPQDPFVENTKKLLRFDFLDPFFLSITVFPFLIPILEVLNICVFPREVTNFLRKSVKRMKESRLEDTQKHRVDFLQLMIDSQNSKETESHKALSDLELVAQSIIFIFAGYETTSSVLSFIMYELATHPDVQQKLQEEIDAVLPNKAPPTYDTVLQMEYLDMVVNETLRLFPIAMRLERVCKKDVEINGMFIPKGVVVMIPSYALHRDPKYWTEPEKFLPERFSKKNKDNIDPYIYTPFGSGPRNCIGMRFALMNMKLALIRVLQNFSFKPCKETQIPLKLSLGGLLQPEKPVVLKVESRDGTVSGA
UniProt P9WPP7, whole entry: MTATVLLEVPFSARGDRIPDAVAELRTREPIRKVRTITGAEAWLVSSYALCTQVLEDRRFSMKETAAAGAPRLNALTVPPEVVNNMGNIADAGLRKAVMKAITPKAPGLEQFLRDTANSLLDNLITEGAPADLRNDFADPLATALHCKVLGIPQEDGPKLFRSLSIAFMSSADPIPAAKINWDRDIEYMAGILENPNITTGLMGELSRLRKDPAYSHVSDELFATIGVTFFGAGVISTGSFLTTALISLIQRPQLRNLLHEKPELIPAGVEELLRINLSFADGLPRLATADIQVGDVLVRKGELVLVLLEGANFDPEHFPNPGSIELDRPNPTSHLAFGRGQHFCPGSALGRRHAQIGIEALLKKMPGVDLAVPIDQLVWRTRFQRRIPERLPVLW

Structure (SMILES)	target or system	test	test system	conditions	measurement	result
COc1cccc(C(=O)c2n[nH]c3ccccc23)c1	Aryl hydrocarbon receptor (AHR, Homo sapiens, UniProt P35869)	reporter gene, agonist	HepG2 transfected XRE-luciferase	4.5 h	EC50	2.76 µM
COc1ccc(S(=O)(=O)N2CCCN(CC(=O)Nc3ccccc3OC)CC2)cc1	Cytochrome P450 2C9 (CYP2C9, Homo sapiens, UniProt P11712)	enzyme activity, inhibitor			IC50	2 µM
O=c1c(-c2c[nH]c3ccccc23)nccc2c1[nH]c1ccccc12	Aryl hydrocarbon receptor (Ahr, Mus musculus, UniProt P30561)	reporter gene, activator	mouse H1L7.5c3	6 h	EC50	0.0071 µM
COCCN(CCOC)c1nc(C)nc2c(-c3c(OC)cc([76Br])cc3OC)c(C)nn12	Corticotropin-releasing factor receptor 1 (Rattus norvegicus, UniProt P35353)		rat, frontal cortex	intravenous, 60 min	tissue uptake	0.127 %ID/g
Clc1cccc(-c2c(Cl)c(Cl)cc(Cl)c2Cl)c1Cl	ATP-dependent translocase ABCB1 (Abcb1a, Mus musculus, UniProt P21447, N83Q/N87Q/N90Q)	verapamil-stimulated ATPase activity, inhibitor	purified protein	with: verapamil 100 µM	IC50	12.5 µM
[11CH3]Nc1ccc(C(=O)C2CCN(C3Cc4ccccc4CC3O)CC2)cc1 (single isomer, unassigned)			Sprague-Dawley rat, blood	intravenous, dose not given, 5 min	radioactivity uptake	0.34 %ID/g
Cc1ccccc1S(=O)(=O)Nc1cccc(C(=O)NC2CCN(c3ncnc4[nH]cnc34)CC2)c1	A549-ACE2			0.09145 µM	viability	105%
COc1ccc(CN[C@@H]2CO[C@H](C(c3ccccc3)c3ccccc3)C[C@H]2O)cc1	Muscarinic acetylcholine receptor M2 (CHRM2, Homo sapiens, UniProt P08172)	radioligand binding		10 µM, with: [3H]QNB	inhibition	23%
CCOc1ccc2cc(-c3nn(CC4(O)CN(C)C4)c4ncnc(N)c34)ccc2c1	KCNH2	ion transport, inhibitor, thallium flux			EC50	11 µM
CC=C(C)C(=O)OCCCc1cc2c(c(OC)c1OC)OCO2	Cytochrome P450 3A4 (CYP3A4, Homo sapiens, UniProt P08684)	enzyme activity, inhibitor, fluorescence		with: dibenzyl fluorescein substrate	IC50	1.6 µM
c1ccc(-c2ccc3c(c2)CCC3n2ccnc2)cc1 (stereo not drawn)	Mycocyclosin synthase (cyp121, Mycobacterium tuberculosis, UniProt P9WPP7)	binding			Kd	5.5 ± 0.9 µM
O=C(NC1CCN(c2ncnc3[nH]cnc23)CC1)c1cccc(S(=O)(=O)Nc2ccc(Cl)cc2)c1	A549-ACE2			0.823 µM	viability	102%
COc1cccc2c(N3CCC(CCP(=O)(O)O)CC3)ncnc12	KCNH2			25 µM	hERG inhibition	no inhibition
CCOc1ccc2cc(-c3nn(CC4CCNCC4)c4ncnc(N)c34)ccc2n1	KCNH2	ion transport, inhibitor, thallium flux			EC50	10 µM
Cc1nc2c[nH]c(/C=C/C=C/c3ccc(N(C)C)cc3)cn-2c1=O	PA-E2 fibrils			concentration not given	chemiluminescence signal half-life	42 min
